Measurements collected from several papers.
A part holds a random share of what one study measured.

Set 1 — method: RNA Bind-n-Seq; form: RNA; matrix: in vitro; tested at: not given; baseline: input RNA pool; reading: higher = stronger binding; quantity: bound/input enrichment
Target: RING finger protein unkempt homolog, zinc fingers 1-6, GST-SBP tag (UNK, Homo sapiens, UniProt Q9C0B0, residues 30-357)
Notes: RNA with constant flanks, human and mouse sites, ends assumed
Constant ends, left off below: GGGAGUUCUACAGUCCGACGAUC … CAACAGAGGAUUGAGCAUCA
Construct (chain): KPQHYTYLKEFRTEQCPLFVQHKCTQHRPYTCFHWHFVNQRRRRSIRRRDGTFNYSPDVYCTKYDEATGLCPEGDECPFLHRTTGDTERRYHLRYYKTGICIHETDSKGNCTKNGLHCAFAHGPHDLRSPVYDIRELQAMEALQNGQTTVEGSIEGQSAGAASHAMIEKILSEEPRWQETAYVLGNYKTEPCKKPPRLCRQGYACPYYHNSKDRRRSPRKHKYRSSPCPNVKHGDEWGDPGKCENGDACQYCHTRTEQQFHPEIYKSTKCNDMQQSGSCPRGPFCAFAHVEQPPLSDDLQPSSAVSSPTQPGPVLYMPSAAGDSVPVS
AGGUUGGGCCAUGACCCCUAUAGAUUAGGUCAUGAUGCUUACAGGUUAGGACAAGACCCUUAUAGAUUAGGCCAUGAUCCCUACAGACUAACUCCUGAUCCCUAUAGGAUGUCACCUAGA: 9.16 ratio
UCUGCUGUGCUGGAGAUCAUCUUUAAGGGCAAAGGAGUUGGAUUGCUGAAUUACAAUGAAACAUGUCUUAUUACUAAAGAAAGUGAUUUACUCCUGGUUAGUACAUUCUCAGAGGAUUCU: 2.04 ratio
AUUUUGCUGUGUGGUGUGGCUGCCUUUGGUAGGGAGGUUUCCAUGGAUGUAGCCAGCGUGUAGCUAUUGUGUGUGGGGCAGCAUCCAGCCUGGAGUUGCCAGUGUCUCUAGCAAGCAAUA: 0.324 ratio
CCACGCUGUGGUUUCAGCAAGCAGAUGGUGGAAAUCCUUCACAAACACAAUAUUCAGUUCAGCAGCUUUGAUAUCUUCUCAGAUGAAGAAGUUCGACAGGGGCUCAAAACGUACUCUAAU: 0.0839 ratio
AGAGGGAGCCAAACAAAAUUGCUAUGCUAUAUGAUGCUGUUUUCAUUGUUUGUCUUUUUUGUCAUUUAUUGGAUUAUUAAACUGAGGUGAUGGAAGUUAGUGUGGGCUUUGAAUUUGUUG: 0.812 ratio
GGAUCAGACCUGUGAACUACCCAGAAGAAAUUGUCUGCUGCCCUUUUCCAAUCCAGUGAAUUUAGAUGCCCCUGAAGACAAGGACAGCCCUUUCGGAUGAUCCAGAUUCCAGUACCAGUA: 0.149 ratio
CAGAGAAAUCACCUUAAUGCAGUCUCUUUAGUUGUCUGCUGAAGCUGUAGUUAUUAUGGGCCACUUACAUGAGGCUGAGAAGUACGUGCCGGAGCUCACACACUGCCUGUUGCGGUUCUC: 0.135 ratio
UCAGAGGCUUUCCUCUCGAAUCUAGUCGUUAACAAGACCAUCUUUGCUAAAGUAGACAGGUUGGCUGGAGUCAUCAACUUCCAGAGACCCAAGGAUCCAAAUAAUUUAUUAAAUGACUGG: 0.411 ratio
UAUGAUGCCCUGGUUGCCAUGACUAUCUUUUUCAACACUCAAAAUGAGCCAGUACGGCAAUUAGCUAUCUUCUGUCCACACGAGGCACUUCGAAUGACAAUCUGUGGCAUCCUGGAACGA: 0.254 ratio
UGGGAUGAAAAUCUCAAAGAUGAUUCUCUUCCUGAAAAUCCAAUAGACUUUUCUUACAGAGUAGCUGCUUGUCUUCCUAUUGAUGAUGUAUUGAGAAUUCAGCUCCUUAAAAUCGGCAGU: 0.253 ratio
AGUUUUUCUGCUUCCAAAAUUUUUAUUUCUGCAUUAGCUAUGGAUGGACAACAACUUUUAGUGGCAUAUCCCUGUGCUUUGUUGUAUGGAGUCUUUGCCCUGAUUUCUGUCUUCUGAACU: 0.24 ratio

Set 2 — method: protein-binding microarray; form: double-stranded DNA, one strand shown; matrix: in vitro; tested at: 940 nM top; notes: 60-bp whole probe; added: salmon DNA 0.4 mg/ml; baseline: random background probes; reading: higher = stronger binding; quantity: fitted relative affinity; constant ends, left off below: GCCTAGCAC … GTCTTGATTCGCTTGACGCTGCTG
Target: Interferon regulatory factor 5, full length, phosphomimetic (IRF5, Homo sapiens, UniProt Q13568-2, residues 1-514, S451D/S453D/S456D/S462D)
GACGACCTGAGACTGGAGACGTGCTAG: -0.437 z-score
TTAGCACTGGACTTTCGGTTAGTGCTA: 2.58 z-score
TCATCATTGCATATAGAACTGTGCTAG: 0.13 z-score
TTAGGTCTCCTACTGCTATAGTGCTAG: 0.227 z-score
GCCACTTTCCATTTCTGTTTGTGCTAG: 2.04 z-score
TTAGGTATCGGGTATCCGTTAGTGCTA: 6.87 z-score
GACAATTTCAGTCTCGAGACGTGCTAG: 2.27 z-score
GACGGTTTCGACACTGGTGACGTGCTA: 7.11 z-score
TTAGATACCGGGACTGGATTAGTGCTA: -0.201 z-score
GACGGTCTCCTTCTCCTGACGTGCTAG: 0.386 z-score
TTAGATTTCAGTTTCTATTAGTGCTAG: 3.87 z-score
TTGGTTTCTGGTTTATTGAGGTGCTAG: 6.16 z-score
GACGATTTCAGTACCGAGACGTGCTAG: 0.177 z-score
TCAATTCTGAATTCGAAACTGTGCTAG: 0.235 z-score
GACGGAATGGACACTGGGGACGTGCTA: -0.413 z-score
GACGATATCGAGACTGGAGACGTGCTA: 0.443 z-score
GACGGCCTCCTACTGCTGACGTGCTAG: -0.259 z-score
TCAGTTTTTCATTTTGTACTGTGCTAG: 1.33 z-score

Set 3 — method: RNA Bind-n-Seq; form: RNA; matrix: in vitro; tested at: 365 nM; baseline: no-protein control; reading: higher = stronger binding; quantity: RBNS enrichment (R)
Target: RNA binding protein fox-1 homolog 2, RRM domain, GST-SBP tag (RBFOX2, Homo sapiens, UniProt O43251-10, residues 100-194)
Notes: natural RNA segment, single round, ends assumed
Constant ends, left off below: GGGAGUUCUACAGUCCGACGAUC … UGGAAUUCUCGGGUGCCAA
Target sequence (chain): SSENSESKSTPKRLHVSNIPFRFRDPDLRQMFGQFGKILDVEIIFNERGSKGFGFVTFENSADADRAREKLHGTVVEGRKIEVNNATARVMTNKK
AGCUUCACUCAGGACCACCUUGGGGUGUAACAGAGGGUGUCAUCCGGCCCCUGGCCCUGGGGAACAUCCCUAGAGGCCCAGAAUGGGGGUUGCUGGGUACCCCAUGCCCU: 0.36
GCGUCCGUCCUCGAGCCAGGCGGGAGGAGGGAGUGGAGAGACUGACUGGCCGUGAUGGGAAUGACAGUGAGAAGGUCCGCCUGUGCGCGUGGAACACUGUGGACGCUCGA: 0.58
CGAAGCUGGAGGAGGACUGCGUGGGCUGAGAUGCCACCCUUUGAAGGGUGAACAGCAUGGCGGCAUCUGGGCCCCACAGUAACACCUAGUGGCAACCUUGCCUUCCUGAC: 5.29
AGGGUUUGACUCCCUGGACACUCUGAGUGGGGUGGUCAUCCAGGCAGUACUAUUAAUGACCUCCCCAGGGCAGGCAUGAGUUGUGUCCUGAGUGGAACAUCUGGCCAUGC: 2.32
CUGUUGGCGCCUAACCUCGCGUGCACUGCAUUCUCAACCCCGUACCAGUGCAUCAUCAGAAGCCUUCCUCGUGACCAUAACUCUGUGUCUGCAGAUAUGUGUUCCCGUGU: 0.255
UGUGCACCUUGGGGUUUUGUAAUGACAGUGCUAAAAAAAAAAAGCAUUUUUUUUUUAUGAUUUGUCUCUGUCACCCUUGUCCUUGAGUGCUCUUGCUAUUAACGUUAUUU: 0.597
AUUACAACAAAUGGGAGGUUCUGACAUCCUAGACCAUCUCACUGAUGCGCCACCAGGAAUCCAGUCUUGUCAUUACAUAAAUAAUCUAAAUGACACUCAGAGAGGGACAG: 0.251
UGUGUCAUGUUGCUUAUGACCCUAUCUGUGAAGCCGGCUCUGGAGUGACAGAGAGAACCUCAAAAAUGUAGCUGGAAAGGACUUUAAAACUCAUCCAAUGCAGAGUCUCG: 0.493
GUUCCUACUCCCACCCUCAGCGAACUGGGCAGCACGGGGAGGGUUUGGCUACCCCUGCCCAUCCCUGAGCCAGGUACCACCAUUGUAAGGAAACACUUUCAGAAAUUCAG: 0.425
GUGAUGCGGGAGGCUCACAAACUUACAAAUCCAACUUUUAUUCUGAGGAACUUACUGUACAAUAUCUAAAAAGAAAGUCACUGGGGAAAACCUUUCCUCCUUCCUCCCUC: 0.356
UGCUUACAUCUAGAUUAUCCAGCACAAUCAUAAAGUGAAUGACAAACCCUUUGAAUGAAAUUGUGGCACAAAAUCUGUUCAGGUUGGUGUACCGUGUAAAGUGGGGAUGG: 0.835
GCUCGGCCCUGUCCUCCUCACAGGCUGGUGUGGCCGUCAGGGUGGGUGGGGUUAUUGUUAGUAGGCGCAGCCUCAUUCCCACCACGAUCUGUUCCGCGUGGUUCCCGCCA: 0.698

Set 4 — method: protein binding microarray; form: double-stranded DNA, one strand shown; matrix: in vitro; tested at: not given; baseline: not given; reading: higher = stronger binding; quantity: E-score
Target: Histone acetyltransferase KAT6A, both winged helices, GST fusion (KAT6A, Homo sapiens, UniProt Q92794, residues 1-181)
Notes: 8-mer, flanks averaged, mean of 2 arrays, mostly near background
Residues (chain): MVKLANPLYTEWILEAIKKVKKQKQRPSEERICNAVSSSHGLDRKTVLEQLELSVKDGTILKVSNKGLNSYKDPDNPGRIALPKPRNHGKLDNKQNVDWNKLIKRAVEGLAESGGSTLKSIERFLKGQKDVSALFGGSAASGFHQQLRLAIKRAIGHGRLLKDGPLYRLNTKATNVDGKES
GCGAATCA: 0.109
CACAATTC: 0.0153
TACCGGTA: 0.308
CTGCAGCC: -0.049
AAAGGAGC: 0.0254
CAGCCTCA: -0.265
CGCGTTGA: 0.286
ATGCATGG: -0.0504
CATAAGCA: -0.068
CGACATGC: 0.0825
AACGGGTG: 0.227
AGGTCTCC: 0.0943
AACTGTGC: -0.0598
CCCGAGAG: 0.0798
CAAGCGTA: 0.0522
AGACAAAA: -0.0913
CTGGCCGA: 0.141
GTTGCTTA: -0.0294
GCCAGACC: 0.029
CGCGTACC: 0.274
ATGCGCGG: 0.35
GAGGTATC: 0.0188
ATCGTTAA: -0.0305
ACTTAGCG: 0.101
CCTTGATA: -0.122
